Results from different studies.
Lines come from different studies, so protocols differ. ± marks the error that the study gave.
OPRL1: Nociceptin receptor (OPRL1, Homo sapiens, UniProt P41146)
PKG: cGMP-dependent protein kinase (PKG, Plasmodium falciparum, UniProt Q8I719)

Chains of the proteins cited; added tags and fusions are not shown. A line that says so, or that is headed by a name, gives the form on record, which may keep a tag or linker. Residues count along the entry.
UniProt P41146, whole entry: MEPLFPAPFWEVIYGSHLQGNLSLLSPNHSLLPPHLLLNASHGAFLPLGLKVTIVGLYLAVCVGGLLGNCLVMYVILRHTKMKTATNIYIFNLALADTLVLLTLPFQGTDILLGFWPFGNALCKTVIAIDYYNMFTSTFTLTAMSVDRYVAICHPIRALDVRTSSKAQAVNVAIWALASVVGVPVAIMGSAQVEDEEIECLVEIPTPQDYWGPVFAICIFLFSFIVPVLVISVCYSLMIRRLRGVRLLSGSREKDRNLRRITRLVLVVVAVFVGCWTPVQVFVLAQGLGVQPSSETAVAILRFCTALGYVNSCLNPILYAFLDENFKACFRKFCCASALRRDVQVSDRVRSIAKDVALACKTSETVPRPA
UniProt Q8I719, whole entry: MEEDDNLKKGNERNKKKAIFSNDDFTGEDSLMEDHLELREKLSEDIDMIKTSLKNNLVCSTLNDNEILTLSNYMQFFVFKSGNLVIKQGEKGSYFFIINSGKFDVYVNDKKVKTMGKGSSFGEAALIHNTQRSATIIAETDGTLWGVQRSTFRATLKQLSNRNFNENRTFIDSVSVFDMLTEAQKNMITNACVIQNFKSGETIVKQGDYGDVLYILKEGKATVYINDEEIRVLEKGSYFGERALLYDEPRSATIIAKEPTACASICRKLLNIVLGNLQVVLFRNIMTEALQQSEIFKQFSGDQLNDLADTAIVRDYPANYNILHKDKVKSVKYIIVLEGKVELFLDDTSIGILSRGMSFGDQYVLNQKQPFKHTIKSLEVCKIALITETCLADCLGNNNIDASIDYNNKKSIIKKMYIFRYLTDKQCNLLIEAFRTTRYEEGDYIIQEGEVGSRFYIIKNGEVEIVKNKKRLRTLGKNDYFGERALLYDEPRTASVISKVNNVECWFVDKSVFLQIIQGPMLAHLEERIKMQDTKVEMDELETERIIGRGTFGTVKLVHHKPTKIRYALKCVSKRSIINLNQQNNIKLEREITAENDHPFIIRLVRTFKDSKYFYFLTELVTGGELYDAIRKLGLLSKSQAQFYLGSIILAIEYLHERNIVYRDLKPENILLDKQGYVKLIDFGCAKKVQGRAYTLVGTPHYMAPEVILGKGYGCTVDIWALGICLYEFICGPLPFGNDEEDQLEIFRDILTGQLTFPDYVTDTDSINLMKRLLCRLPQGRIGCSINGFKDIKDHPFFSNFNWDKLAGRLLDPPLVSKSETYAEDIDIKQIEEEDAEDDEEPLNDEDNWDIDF
UniProt Q9VNB5, whole entry: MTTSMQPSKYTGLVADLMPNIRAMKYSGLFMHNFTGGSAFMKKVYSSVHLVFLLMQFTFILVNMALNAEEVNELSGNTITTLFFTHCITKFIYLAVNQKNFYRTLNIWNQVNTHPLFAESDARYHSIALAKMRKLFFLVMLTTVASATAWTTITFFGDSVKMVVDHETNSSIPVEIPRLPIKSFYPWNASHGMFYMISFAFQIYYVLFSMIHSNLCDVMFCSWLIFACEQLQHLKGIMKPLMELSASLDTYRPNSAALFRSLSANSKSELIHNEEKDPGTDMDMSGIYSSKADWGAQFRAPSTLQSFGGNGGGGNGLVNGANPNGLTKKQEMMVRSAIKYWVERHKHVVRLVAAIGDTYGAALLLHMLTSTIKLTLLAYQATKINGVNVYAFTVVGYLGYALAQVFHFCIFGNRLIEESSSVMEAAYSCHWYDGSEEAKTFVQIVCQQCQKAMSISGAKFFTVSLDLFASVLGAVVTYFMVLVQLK
UniProt Q16881, 151-649 limits assumed: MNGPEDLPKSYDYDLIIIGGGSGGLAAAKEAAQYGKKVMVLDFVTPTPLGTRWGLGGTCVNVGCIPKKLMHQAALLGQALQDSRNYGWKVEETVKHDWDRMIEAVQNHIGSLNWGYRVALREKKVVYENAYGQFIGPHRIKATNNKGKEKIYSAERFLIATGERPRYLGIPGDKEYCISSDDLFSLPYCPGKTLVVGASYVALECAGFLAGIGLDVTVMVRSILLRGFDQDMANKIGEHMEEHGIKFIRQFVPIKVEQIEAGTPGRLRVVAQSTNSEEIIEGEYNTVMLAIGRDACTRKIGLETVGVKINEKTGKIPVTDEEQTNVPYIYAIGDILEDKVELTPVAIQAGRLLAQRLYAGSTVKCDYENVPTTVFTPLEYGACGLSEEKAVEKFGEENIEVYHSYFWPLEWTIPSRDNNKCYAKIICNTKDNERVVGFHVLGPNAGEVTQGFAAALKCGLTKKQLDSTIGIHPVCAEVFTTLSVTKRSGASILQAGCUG
UniProt P08510, 1-655 with tags or gaps DEL6-46: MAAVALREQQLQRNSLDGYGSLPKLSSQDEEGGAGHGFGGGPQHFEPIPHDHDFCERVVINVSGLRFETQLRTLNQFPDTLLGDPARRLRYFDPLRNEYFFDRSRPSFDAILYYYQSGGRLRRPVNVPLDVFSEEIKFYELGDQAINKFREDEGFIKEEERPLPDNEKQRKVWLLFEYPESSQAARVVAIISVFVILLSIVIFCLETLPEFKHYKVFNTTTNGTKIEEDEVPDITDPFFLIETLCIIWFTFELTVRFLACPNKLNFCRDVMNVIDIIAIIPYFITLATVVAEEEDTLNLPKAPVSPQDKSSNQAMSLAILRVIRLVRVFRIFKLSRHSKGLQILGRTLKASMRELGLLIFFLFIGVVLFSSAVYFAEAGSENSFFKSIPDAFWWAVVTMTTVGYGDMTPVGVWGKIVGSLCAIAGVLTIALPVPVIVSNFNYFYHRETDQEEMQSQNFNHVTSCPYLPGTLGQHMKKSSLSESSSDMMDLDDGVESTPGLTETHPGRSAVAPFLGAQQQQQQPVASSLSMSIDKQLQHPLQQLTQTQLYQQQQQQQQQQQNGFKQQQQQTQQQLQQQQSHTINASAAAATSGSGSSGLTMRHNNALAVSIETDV
UniProt P37136, 32-614 limits assumed: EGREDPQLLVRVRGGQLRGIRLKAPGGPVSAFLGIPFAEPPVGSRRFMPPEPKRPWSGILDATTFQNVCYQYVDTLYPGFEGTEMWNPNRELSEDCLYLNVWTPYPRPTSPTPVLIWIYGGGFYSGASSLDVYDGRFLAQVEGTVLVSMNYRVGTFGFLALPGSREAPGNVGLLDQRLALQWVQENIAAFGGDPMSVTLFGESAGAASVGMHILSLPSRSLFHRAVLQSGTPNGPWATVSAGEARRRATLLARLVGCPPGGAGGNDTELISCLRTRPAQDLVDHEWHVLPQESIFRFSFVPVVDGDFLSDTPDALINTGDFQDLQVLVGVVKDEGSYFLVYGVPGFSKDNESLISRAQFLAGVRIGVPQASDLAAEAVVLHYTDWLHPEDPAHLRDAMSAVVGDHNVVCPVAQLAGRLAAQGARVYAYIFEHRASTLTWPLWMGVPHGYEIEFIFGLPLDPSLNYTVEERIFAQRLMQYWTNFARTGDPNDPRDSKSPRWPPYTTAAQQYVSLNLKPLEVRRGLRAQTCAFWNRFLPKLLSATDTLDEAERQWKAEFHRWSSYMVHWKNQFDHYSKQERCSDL
UniProt Q9H9B1, 1126-1243 limits assumed: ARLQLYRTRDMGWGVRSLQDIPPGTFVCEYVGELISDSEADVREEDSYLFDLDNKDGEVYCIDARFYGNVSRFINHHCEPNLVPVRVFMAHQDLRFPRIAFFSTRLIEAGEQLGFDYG
UniProt P59768, 2-68 partner limits assumed: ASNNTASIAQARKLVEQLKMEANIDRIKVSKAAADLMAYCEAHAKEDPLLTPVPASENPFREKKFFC
UniProt P62873, whole entry partner: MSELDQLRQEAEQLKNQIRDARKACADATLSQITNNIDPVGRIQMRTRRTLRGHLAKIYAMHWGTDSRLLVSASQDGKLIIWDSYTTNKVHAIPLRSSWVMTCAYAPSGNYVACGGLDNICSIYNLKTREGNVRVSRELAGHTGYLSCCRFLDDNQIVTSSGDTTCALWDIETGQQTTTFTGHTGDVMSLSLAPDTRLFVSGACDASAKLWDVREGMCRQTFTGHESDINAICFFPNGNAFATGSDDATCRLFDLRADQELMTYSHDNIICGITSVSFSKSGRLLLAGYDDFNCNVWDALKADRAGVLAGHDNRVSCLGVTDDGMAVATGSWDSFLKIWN
UniProt P63096, 2-354 partner limits assumed: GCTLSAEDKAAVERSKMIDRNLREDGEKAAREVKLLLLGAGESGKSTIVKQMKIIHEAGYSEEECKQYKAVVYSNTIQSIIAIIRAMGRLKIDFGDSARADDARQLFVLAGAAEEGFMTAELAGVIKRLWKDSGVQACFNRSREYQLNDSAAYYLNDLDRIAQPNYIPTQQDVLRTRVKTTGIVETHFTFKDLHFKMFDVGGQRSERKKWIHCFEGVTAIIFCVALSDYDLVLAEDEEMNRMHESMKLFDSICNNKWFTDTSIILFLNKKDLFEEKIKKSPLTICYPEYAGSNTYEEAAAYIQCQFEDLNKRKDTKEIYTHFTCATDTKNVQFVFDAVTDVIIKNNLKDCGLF

CNC(=O)CC1C(=O)N(C2CCN([C@H]3CC[C@@H](C(C)C)CC3)CC2)c2ccccc21 (some centres unmarked)
intrinsic activity (OPRL1; calcium mobilization; CHO with Gαqi5; concentration not given, unit not given; reference: compound over N/OFQ Emax): 0.96

CC[C@H](C)[C@H](NC(=O)[C@H](C)NC(=O)[C@H](CCC(=O)O)NC(=O)[C@H](CCC(=O)O)NC(=O)[C@H](CC(C)C)NC(=O)[C@H](CCCCN)NC(=O)[C@H](CCCCN)NC(=O)[C@H](CCSC)NC(=O)[C@H](CCC(=O)O)NC(=O)[C@H](Cc1ccc(O)cc1)NC(=O)[C@H](CCC(=O)O)NC(=O)[C@H](CC(C)C)NC(=O)[C@H](CC(=O)O)NC(=O)[C@H](CC(C)C)NC(=O)[C@H](Cc1ccccc1)NC(=O)[C@H](Cc1ccccc1)NC(=O)[C@@H](NC(=O)[C@H](CC(N)=O)NC(=O)[C@@H](NC(=O)[C@H](CCC(N)=O)NC(=O)[C@H](CC(=O)O)NC(=O)[C@H](CC(C)C)NC(=O)[C@@H](N)CO)[C@@H](C)CC)C(C)C)C(=O)N[C@@H](CCCCN)C(=O)N[C@@H](CCCCN)C(=O)N[C@@H](CC(C)C)C(=O)N[C@@H](CCC(=O)O)C(=O)N[C@@H](CCC(=O)O)C(=O)N[C@@H](C)C(=O)N[C@@H](Cc1ccc(O)cc1)C(=O)N[C@H](C(=O)N[C@@H](CC(=O)O)C(=O)N[C@@H](CC(C)C)C(=O)N[C@@H](CCCCN)C(=O)N[C@@H](CCC(=O)O)C(=O)N[C@@H](CC(C)C)C(=O)O)[C@@H](C)CC
IC50 (SARS-CoV-2 Delta pseudovirus; pseudovirus infection, inhibitor, luciferase; Caco-2; 24 h, dual mutations): 813 nM

CCc1ccc2c(c1)CCN2C(=O)CSc1nnc(-c2ccncc2)n1C1CC1
efficacy (Orco (Drosophila melanogaster, UniProt Q9VNB5); calcium mobilization, agonist; HEK293 expressing Drosophila Orco; reference: VUAA1): 113%

CC(=O)Oc1ccc(CON2C(=O)CCC2=O)cc1
kinact (TXNRD1 (Homo sapiens, UniProt Q16881); enzyme activity, inhibitor, DTNB reduction, two-step kinetics): 0.00078 ± 9e-05 s⁻¹

O=C1Cc2ccccc2N1C1CCN([C@@H]2CC[C@H]3CCCc4cccc2c43)CC1
intrinsic activity (OPRL1; G protein interaction, BRET; HEK293 membranes; concentration not given, unit not given; reference: N/OFQ maximal effect): 1.01 ± 0.03

CCN(CC)Cc1onc(-c2cccc(Cl)c2)c1-c1ccnc(N[C@@H]2CCN(C(=O)c3ccn(C)n3)C2)n1
inhibition (PKG; kinase activity, inhibitor, IMAP; 10 µM): 98.4 ± 1.8%

CC[C@H](C)[C@H](NC(=O)[C@H](C)NC(=O)[C@H](CCC(=O)O)NC(=O)[C@H](CCC(=O)O)NC(=O)[C@H](CC(C)C)NC(=O)[C@H](CCCCN)NC(=O)[C@H](CCCCN)NC(=O)[C@H](CCSC)NC(=O)[C@H](CCC(=O)O)NC(=O)[C@H](Cc1ccc(O)cc1)NC(=O)[C@H](CCC(=O)O)NC(=O)[C@H](CC(C)C)NC(=O)[C@H](CC(=O)O)NC(=O)[C@H](CC(C)C)NC(=O)[C@H](Cc1ccccc1)NC(=O)[C@H](Cc1ccccc1)NC(=O)[C@@H](NC(=O)[C@H](CC(N)=O)NC(=O)[C@@H](NC(=O)[C@H](CCC(N)=O)NC(=O)[C@H](CC(=O)O)NC(=O)[C@H](CC(C)C)NC(=O)[C@@H](N)CO)[C@@H](C)CC)C(C)C)C(=O)N[C@@H](CCCCN)C(=O)N[C@@H](CCCCN)C(=O)N[C@@H](CC(C)C)C(=O)N[C@@H](CCC(=O)O)C(=O)N[C@@H](CCC(=O)O)C(=O)N[C@@H](CO)C(=O)N[C@@H](Cc1ccc(O)cc1)C(=O)N[C@H](C(=O)N[C@@H](CC(=O)O)C(=O)N[C@@H](CC(C)C)C(=O)N[C@@H](CCCCN)C(=O)N[C@@H](CCC(=O)O)C(=O)N[C@@H](CC(C)C)C(=O)O)[C@@H](C)CC
IC50 (SARS-CoV-2 Delta pseudovirus; pseudovirus infection, inhibitor, luciferase; Caco-2; 24 h): 401 nM

Cc1ccc(S(=O)(=O)Nc2cccc(C(=O)NC3CCN(c4ncnc5[nH]cnc45)CC3)c2)cc1
inhibition (Replicase polyprotein 1ab, nsp14 ExoN with nsp10 (rep, Severe acute respiratory syndrome coronavirus 2, UniProt P0DTD1); ExoN activity; 0.01221 µM): 17.1%

CC[C@H](C)[C@@H]1NC(=O)[C@H](CCCNC(=N)N)NC(=O)[C@@H](N)CSSC[C@@H]2NC(=O)[C@@H]3CSSC[C@@H](C(=O)N[C@H](C(=O)O)C(C)C)NC(=O)[C@H](CCCCN)NC(=O)[C@H](CC(N)=O)NC(=O)[C@H](Cc4ccccc4)NC(=O)[C@H](CCCNC(=N)N)NC(=O)[C@H](CC(N)=O)NC(=O)[C@H](CSSC[C@H](NC(=O)[C@H](CCCCN)NC(=O)[C@H](CCC(N)=O)NC(=O)[C@H](CC(N)=O)NC(=O)[C@@H]4C[C@@H](O)CN4C1=O)C(=O)N[C@@H](Cc1ccccc1)C(=O)N[C@@H](CCC(N)=O)C(=O)N[C@@H](Cc1c[nH]cn1)C(=O)N[C@@H](CC(C)C)C(=O)N[C@@H](CC(=O)O)C(=O)N[C@@H](CC(=O)O)C(=O)N3)NC(=O)[C@H](CCCCN)NC(=O)[C@H](CCCNC(=N)N)NC(=O)[C@H](CO)NC2=O
koff (Sh (Drosophila melanogaster, UniProt P08510, del6-46); potassium current, two-electrode voltage clamp; Xenopus oocytes; external K 100 mM, zero voltage): 22 ± 2 s⁻¹

CCOP(=O)(OCC)ON1C(=O)c2cccc3cccc(c23)C1=O
IC50 (Ache (Rattus norvegicus, UniProt P37136); enzyme activity, inhibitor, discontinuous Ellman; rat, postnatal day 1, rat skeletal muscle homogenate; 15 min, 37 °C): 20 nM

CS(=O)(=O)Cc1onc(-c2cccc(Cl)c2)c1-c1ccnc(N[C@@H]2CCN(C(=O)c3nccs3)C2)n1
inhibition (PKG; kinase activity, inhibitor, IMAP; 10 µM): 102%

CC(C)[C@H]1CC[C@@H](N2CCC3(CC2)C(=O)NCN3c2ccccc2)CC1
intrinsic activity (OPRL1; G protein interaction, BRET; HEK293 membranes; concentration not given, unit not given; reference: compound Emax over N/OFQ Emax): 0.93

CCCN(C)Cc1onc(-c2cccc(Cl)c2)c1-c1ccnc(N[C@@H]2CCN(C(=O)c3ccn(C)n3)C2)n1
inhibition (PKG; kinase activity, inhibitor, IMAP; 10 µM): 96 ± 1.4%

COc1cc2c(NC3CCN(Cc4ccccc4)CC3)nc(NCCCN(C)C)nc2cc1OCCCCCN
selectivity ratio (Histone-lysine N-methyltransferase EHMT1, SET domain (EHMT1, Homo sapiens, UniProt Q9H9B1); enzyme activity; reference: apparent Ki KDM7A over EHMT1): ~2500

For quick reference, copied from above:
CC[C@H](C)[C@@H]1NC(=O)[C@H](CCCNC(=N)N)NC(=O)[C@@H](N)CSSC[C@@H]2NC(=O)[C@@H]3CSSC[C@@H](C(=O)N[C@H](C(=O)O)C(C)C)NC(=O)[C@H](CCCCN)NC(=O)[C@H](CC(N)=O)NC(=O)[C@H](Cc4ccccc4)NC(=O)[C@H](CCCNC(=N)N)NC(=O)[C@H](CC(N)=O)NC(=O)[C@H](CSSC[C@H](NC(=O)[C@H](CCCCN)NC(=O)[C@H](CCC(N)=O)NC(=O)[C@H](CC(N)=O)NC(=O)[C@@H]4C[C@@H](O)CN4C1=O)C(=O)N[C@@H](Cc1ccccc1)C(=O)N[C@@H](CCC(N)=O)C(=O)N[C@@H](Cc1c[nH]cn1)C(=O)N[C@@H](CC(C)C)C(=O)N[C@@H](CC(=O)O)C(=O)N[C@@H](CC(=O)O)C(=O)N3)NC(=O)[C@H](CCCCN)NC(=O)[C@H](CCCNC(=N)N)NC(=O)[C@H](CO)NC2=O
koff (Sh (Drosophila melanogaster, UniProt P08510, del6-46); potassium current, two-electrode voltage clamp; Xenopus oocytes; external K 100 mM, zero voltage): 22 ± 2 s⁻¹

CCOP(=O)(OCC)ON1C(=O)c2cccc3cccc(c23)C1=O
IC50 (Ache (Rattus norvegicus, UniProt P37136); enzyme activity, inhibitor, discontinuous Ellman; rat, postnatal day 1, rat skeletal muscle homogenate; 15 min, 37 °C): 20 nM
